Published values gathered from unrelated publications.
A part holds a random share of what one study measured. Changes are numbered by the printed parent chain.

Sample 1
Target: Histone acetyltransferase KAT6A, winged helix 1, GST fusion (KAT6A, Homo sapiens, UniProt Q92794, residues 1-85)
Method: protein binding microarray
Molecule type: double-stranded DNA, one strand shown
Medium: in vitro
Tested at: not given
Notes: 8-mer, flanks averaged, mean of 2 arrays, mostly near background
Relative to: not given
Reading: higher = stronger binding
Residues (chain): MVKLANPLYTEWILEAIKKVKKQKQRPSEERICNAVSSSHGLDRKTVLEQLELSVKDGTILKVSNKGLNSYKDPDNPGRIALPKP
Strand | E-score
ACCATCAC | -0.0683
AACCCGTT | 0.267
GCTCACGA | 0.00239
AACCAAGC | -0.0158
AAACAGTG | -0.0788
CACGAGCA | -0.264
AAAGCCAA | -0.118
CGTTCGCA | 0.155
CTCGTGGA | -0.293
GAGATGCC | 0.04
CCGATAAA | -0.0311
GGCTACCC | 0.0258
CAGGGCAA | -0.115
CCAATTGG | -0.187
ACACGTCT | -0.138
GCCTCACC | 0.0993
GAAAGTGA | -0.257
CATACGTA | 0.15
ACGGTGAT | 0.0746
ACATAACC | -0.085
ACAGATGG | -0.0002
CGCGAATC | 0.28
ACGCCGCA | 0.311

Sample 2
Target: RNA binding protein fox-1 homolog 2, RRM domain, GST-SBP tag (RBFOX2, Homo sapiens, UniProt O43251-10, residues 100-194)
Method: RNA Bind-n-Seq
Molecule type: RNA
Medium: in vitro
Tested at: 365 nM
Notes: natural RNA segment, single round, ends assumed
Relative to: no-protein control
Reading: higher = stronger binding
Strand | RBNS enrichment (R)
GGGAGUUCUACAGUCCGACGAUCUACAGUUAGAAAGCAAAGUGUUAAAUGGAGAAGAUACUUGUUUUUAUUAAACAUUUUGAGAUUUAGAUAAACUACAUUUUAACUGAAUGUCUAAAGUGAUUAUCUUUUUUUGGAAUUCUCGGGUGCCAA | 0.787
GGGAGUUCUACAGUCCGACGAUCCAAGAUAUUUUAAAAUCUGUCACGUAGAACUUGGAUGUACCUGCCCCCAAUCCAUGAACCAAGACCAUUGAAUUCUUGGUUGAGGAAACAAACAUGACCCUAAAUCUUGAUGGAAUUCUCGGGUGCCAA | 0.403
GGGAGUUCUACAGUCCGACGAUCUUCCUCUGAAAUGGAUAUAAAGAUGUAAAUUUUAUAACAGCACUGUUUAUUCUGAUGCAUUCUGAUGGGUCAGUGUCGUGUCAUUAAUUAAUAAAGGCAUUUUCUUCUCAUGGAAUUCUCGGGUGCCAA | 1.66
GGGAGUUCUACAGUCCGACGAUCAGCAGGAUGGGGGUGGGGGACCCCGACUGACCUCACAGUUGGCUCUGAGGAGAGGGGGGAAAUUUUAAAUUCUUUAACAUUUUUGUUUCAAUUUCUGUCUUUUGUAAGACUGGAAUUCUCGGGUGCCAA | 0.723
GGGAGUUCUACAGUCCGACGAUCUGACUUCUGCCUGGAGACUUAGGGCACCAGGGGUUUCUCGCAUAGGACCUUUCCACCACAGCCAGCACCUGGCAUCGCACCAUUCUGACUCGGUUUCUCCAAACUGAAGCUGGAAUUCUCGGGUGCCAA | 0.433
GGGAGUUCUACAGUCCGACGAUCACUGCUGGGAGCCAUGUUUGUCACCUUAGUAGAAUGCACCAAUGUUCCCUUCUGCAUCUCUGGCCCUGUGGACAGAACACUUAUUGCUAGGUUAUCUAUCGUGUGGCAGGUGGAAUUCUCGGGUGCCAA | 1.28
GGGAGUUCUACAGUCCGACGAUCUUCUAUUUCCGGCUCCAGGUACCUGAACUUGCUAUGUUGCGUUUUGUGGUAAAGGAUUAUAGCAGGAAAUCCCGAAAUAACUUUAUUGGCCAAUACACCCUACCUUGGACUGGAAUUCUCGGGUGCCAA | 0.521
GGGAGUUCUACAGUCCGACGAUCGGACUCGAGGGCAGCAGAUCCAUCUCCCGUCCCUUGCUGCAUGAUGGUCACUAGCUGAUCUGUGAUGGCGUCCCUUCCCCCAUUGAUUUUCUGUGUUUGAAGUAUGUGCAUGGAAUUCUCGGGUGCCAA | 20.8

Sample 3
Target: Fragile X messenger ribonucleoprotein 1, C-terminal low-complexity region (Fmr1, Mus musculus, UniProt P35922)
Method: RNA Bind-n-Seq
Molecule type: RNA
Medium: in vitro
Tested at: 200 nM
Notes: whole 134-nt RNA, ends assumed
Together with: 150 mM KCl
Relative to: input library
Reading: higher = stronger binding
Strand | log2 enrichment
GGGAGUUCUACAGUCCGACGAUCCUCAAGUCCUGUGCUACACAUCGUAUGUACCGAAUCGGUGGUUUUUGGAAAGGAAAGUAUUAUGUUACGCCGUUCGGAUCUGCACUUCCAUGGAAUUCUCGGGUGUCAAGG | -0.0843
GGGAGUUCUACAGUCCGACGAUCUCAAGUCCUGUGCUACACAUCGUAUGUACCGAAUCGGGCCCGGGCCCGGGCCCGGAAAGUAUUAUGUUACGCCGUUCGGAUCUGCACUUCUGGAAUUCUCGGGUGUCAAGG | -0.483
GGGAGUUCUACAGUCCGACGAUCUGGCCCUGGUGGCAUGCGGGGAGGAAGAGGUGGCCUCAUGGAUCGUGGUGGUCCCGGUGGAAUGUUCAGAGGUGGCCGUGGUGGAGAUAGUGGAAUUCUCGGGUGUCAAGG | 0.202
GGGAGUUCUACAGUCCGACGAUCCAAAAUACCAAGGGAUUUAUAUGAGGAUGAGUUGGUGCCCCUUUUUGAGAAGGCCGGACCCAUUUGGGAUCUACGUCUUAUGAUGGAUCCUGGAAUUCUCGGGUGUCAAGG | -0.525
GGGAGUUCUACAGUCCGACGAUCCUGUGCUACACAUCGUAUGUACCGAAUCGGGGAAAAAAAGGGGAAAGGGGAAAAAAAGGGGAAAGUAUUAUGUUACGCCGUUCGGAUCUGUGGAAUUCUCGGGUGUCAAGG | -0.444
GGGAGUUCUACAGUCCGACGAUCACCAUGCAGGUGGGCAUCUUUGGGAAGUGGGGCAAGGGGGAGAUAGGGAGGGGGGUAACACUUUGGGAACAGGUGGUCCCAGGUCGUUUCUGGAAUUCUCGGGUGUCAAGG | 0.893
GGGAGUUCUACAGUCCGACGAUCACCAUGCAGGUGGUCAUCUUUGGGAAGUGGGGCAAGGGGGGGAUAGGGAGGGGGGUAACACUUUGGGAACAGGUGGUCCCAGGUCGUUUCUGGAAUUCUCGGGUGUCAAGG | 0.703
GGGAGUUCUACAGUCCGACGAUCGUCCUGUGCUACACAUCGUAUGUACCGAAUCGGGAAAGGGAAAAAAAGGGAAAAAGGGAAAGUAUUAUGUUACGCCGUUCGGAUCUGCACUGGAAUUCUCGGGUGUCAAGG | -0.409
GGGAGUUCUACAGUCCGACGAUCUAGCCCUGGUGGCAUGCGGGGAGGAAGAGGUGGCCUCAUGGAUCGUGGUGGUCCCGGUGGAAUGUUCAGAGGUGGCCGUGGUGGAGACAGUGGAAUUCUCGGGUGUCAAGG | 0.082

Sample 4
Target: ABI1, truncated, D143A, DHFR fusion (Arabidopsis thaliana)
Method: DHFR PCA, deep sequencing
Medium: yeast
Notes: methotrexate growth selection, single substitutions
Together with: (+)-ABA 710 µM
Relative to: wild-type fitted maximum
Reading: higher = stronger binding
Parent: PYL1, truncated, DHFR fusion (Arabidopsis thaliana); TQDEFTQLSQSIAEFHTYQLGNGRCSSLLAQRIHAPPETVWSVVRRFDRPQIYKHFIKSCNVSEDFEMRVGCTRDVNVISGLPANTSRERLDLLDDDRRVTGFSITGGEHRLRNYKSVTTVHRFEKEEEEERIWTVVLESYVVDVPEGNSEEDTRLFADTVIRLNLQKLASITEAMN
Variant | relative binding score [%]
L8N | 71.7
L112E | 14.4
F5E | 99.1
R49Y | 88.3
D75V | 102
D95H | 85.7
H110A | 36
F103P | -21.4
D95F | 88.1
I57E | 6.32
V143L | 86
S63M | 105
D96L | 67.4
D65L | 91.6
